Measured values gathered from unrelated publications.
Lines come from different studies, so protocols differ. ± gives the spread as reported.
KCNA2/KCNA1: KCNA2/KCNA1 (Homo sapiens, UniProt P16389+Q09470)
Chain of UniProt P16389 (whole entry, looked up): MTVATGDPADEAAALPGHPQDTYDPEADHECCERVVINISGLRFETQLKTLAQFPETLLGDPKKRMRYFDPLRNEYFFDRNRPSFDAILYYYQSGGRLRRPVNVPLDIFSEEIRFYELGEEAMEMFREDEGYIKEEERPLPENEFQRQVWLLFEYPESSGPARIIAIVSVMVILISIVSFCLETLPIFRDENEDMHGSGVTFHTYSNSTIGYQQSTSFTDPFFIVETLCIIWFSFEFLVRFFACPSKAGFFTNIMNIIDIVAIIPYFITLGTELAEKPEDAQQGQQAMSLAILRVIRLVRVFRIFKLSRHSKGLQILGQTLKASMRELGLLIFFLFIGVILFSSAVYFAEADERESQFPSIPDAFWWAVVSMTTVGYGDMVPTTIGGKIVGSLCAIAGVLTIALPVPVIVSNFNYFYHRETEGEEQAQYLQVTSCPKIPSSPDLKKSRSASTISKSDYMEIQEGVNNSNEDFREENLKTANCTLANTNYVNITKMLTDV
Chain of UniProt Q09470 (whole entry, looked up): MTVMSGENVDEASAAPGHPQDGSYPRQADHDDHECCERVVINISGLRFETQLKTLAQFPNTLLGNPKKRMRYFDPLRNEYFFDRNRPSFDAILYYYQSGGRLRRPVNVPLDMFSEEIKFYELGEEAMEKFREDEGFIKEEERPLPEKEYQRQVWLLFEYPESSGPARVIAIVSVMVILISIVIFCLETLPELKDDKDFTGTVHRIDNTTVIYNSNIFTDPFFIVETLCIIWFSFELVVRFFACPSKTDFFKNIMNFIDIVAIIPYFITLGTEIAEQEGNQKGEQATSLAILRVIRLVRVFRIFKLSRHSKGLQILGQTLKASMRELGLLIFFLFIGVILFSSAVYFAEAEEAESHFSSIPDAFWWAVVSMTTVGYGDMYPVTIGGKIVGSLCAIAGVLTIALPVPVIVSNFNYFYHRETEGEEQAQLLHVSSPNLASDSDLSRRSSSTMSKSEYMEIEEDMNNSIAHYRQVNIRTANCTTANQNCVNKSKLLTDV
HDAC11: Histone deacetylase 11 (HDAC11, Homo sapiens, UniProt Q96DB2)
Chain of UniProt Q96DB2 (whole entry, looked up): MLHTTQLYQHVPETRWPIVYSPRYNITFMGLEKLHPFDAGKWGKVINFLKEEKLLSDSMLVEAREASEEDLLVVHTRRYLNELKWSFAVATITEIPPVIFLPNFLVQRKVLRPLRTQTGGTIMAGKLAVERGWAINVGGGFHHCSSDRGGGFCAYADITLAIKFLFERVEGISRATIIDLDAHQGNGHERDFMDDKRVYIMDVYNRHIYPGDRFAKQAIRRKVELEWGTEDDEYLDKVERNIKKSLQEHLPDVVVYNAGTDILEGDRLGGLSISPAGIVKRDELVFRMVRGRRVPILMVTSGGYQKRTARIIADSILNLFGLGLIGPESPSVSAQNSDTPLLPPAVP
CSK: Tyrosine-protein kinase CSK (CSK, Homo sapiens, UniProt P41240)
Chain of UniProt P41240 (whole entry, looked up): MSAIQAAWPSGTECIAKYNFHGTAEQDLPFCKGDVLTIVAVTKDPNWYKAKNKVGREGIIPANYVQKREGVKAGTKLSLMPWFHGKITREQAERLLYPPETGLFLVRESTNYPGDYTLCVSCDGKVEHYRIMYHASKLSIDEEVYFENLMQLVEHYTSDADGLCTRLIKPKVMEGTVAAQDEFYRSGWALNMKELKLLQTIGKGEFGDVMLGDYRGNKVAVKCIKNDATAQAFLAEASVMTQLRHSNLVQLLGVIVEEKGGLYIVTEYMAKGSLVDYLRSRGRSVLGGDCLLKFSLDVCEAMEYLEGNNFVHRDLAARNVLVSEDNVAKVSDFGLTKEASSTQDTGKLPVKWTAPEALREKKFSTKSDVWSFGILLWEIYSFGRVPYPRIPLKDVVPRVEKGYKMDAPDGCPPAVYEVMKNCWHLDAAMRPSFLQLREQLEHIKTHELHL
GRPR: Gastrin-releasing peptide receptor (GRPR, Homo sapiens, UniProt P30550)
Chain of UniProt P30550 (whole entry, looked up): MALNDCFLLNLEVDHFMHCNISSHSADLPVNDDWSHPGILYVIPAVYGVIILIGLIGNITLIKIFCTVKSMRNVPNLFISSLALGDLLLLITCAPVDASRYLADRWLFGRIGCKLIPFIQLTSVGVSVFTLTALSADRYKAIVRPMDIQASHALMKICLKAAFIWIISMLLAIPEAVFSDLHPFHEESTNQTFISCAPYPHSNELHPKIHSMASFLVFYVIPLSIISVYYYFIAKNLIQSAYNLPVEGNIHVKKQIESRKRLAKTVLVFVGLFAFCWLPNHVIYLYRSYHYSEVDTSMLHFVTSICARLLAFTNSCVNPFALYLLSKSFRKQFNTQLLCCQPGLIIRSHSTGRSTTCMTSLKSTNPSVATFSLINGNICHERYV
TRPV1: Transient receptor potential cation channel subfamily V member 1 (TRPV1, Homo sapiens, UniProt Q8NER1)
Chain of UniProt Q8NER1 (whole entry, looked up): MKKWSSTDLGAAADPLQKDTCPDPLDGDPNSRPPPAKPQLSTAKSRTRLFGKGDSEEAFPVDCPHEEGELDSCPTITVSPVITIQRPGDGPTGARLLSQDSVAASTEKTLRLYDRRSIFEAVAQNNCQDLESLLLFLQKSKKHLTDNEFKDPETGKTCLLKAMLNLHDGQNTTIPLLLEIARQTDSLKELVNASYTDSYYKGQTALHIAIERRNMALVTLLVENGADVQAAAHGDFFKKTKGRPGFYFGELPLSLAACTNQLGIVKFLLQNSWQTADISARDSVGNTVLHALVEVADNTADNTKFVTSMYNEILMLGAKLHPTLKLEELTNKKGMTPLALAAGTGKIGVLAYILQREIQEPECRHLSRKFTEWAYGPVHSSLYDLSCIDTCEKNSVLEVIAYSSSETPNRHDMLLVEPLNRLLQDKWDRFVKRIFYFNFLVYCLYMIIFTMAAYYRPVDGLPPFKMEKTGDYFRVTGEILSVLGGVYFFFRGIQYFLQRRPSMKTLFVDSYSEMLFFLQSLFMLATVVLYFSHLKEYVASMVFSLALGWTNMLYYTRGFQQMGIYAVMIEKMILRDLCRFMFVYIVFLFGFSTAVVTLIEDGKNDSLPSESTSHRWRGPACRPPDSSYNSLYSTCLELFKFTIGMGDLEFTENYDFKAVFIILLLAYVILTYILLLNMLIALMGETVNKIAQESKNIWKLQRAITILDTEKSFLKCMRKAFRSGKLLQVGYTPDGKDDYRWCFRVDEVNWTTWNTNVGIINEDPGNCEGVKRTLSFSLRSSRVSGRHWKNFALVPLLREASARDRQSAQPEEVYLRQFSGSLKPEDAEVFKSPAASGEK
Chain of UniProt P28074 (whole entry, looked up): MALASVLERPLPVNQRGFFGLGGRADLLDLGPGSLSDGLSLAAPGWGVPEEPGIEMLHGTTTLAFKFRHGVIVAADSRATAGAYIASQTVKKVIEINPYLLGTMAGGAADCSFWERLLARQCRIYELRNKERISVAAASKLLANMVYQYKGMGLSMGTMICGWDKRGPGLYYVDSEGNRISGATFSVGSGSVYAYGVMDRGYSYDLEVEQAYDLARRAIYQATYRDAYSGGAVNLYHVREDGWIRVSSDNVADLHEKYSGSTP
Chain of UniProt Q9HC97 (whole entry, looked up): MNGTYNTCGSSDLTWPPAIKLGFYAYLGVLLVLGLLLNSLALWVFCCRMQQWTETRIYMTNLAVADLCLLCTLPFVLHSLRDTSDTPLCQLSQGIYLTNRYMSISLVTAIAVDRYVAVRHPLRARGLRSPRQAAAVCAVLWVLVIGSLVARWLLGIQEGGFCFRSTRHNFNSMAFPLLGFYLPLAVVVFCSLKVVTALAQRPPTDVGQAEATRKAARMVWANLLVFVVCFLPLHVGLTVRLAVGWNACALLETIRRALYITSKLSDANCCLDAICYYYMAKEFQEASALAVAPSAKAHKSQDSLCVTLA
Chain of UniProt P09936 (whole entry, looked up): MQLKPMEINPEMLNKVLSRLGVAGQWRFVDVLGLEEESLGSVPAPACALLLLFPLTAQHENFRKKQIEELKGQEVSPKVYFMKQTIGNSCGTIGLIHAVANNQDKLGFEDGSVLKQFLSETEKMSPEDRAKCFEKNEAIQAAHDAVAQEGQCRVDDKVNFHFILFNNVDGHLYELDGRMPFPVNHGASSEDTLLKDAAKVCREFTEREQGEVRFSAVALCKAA
Chain of UniProt Q9NRF8 (whole entry, looked up): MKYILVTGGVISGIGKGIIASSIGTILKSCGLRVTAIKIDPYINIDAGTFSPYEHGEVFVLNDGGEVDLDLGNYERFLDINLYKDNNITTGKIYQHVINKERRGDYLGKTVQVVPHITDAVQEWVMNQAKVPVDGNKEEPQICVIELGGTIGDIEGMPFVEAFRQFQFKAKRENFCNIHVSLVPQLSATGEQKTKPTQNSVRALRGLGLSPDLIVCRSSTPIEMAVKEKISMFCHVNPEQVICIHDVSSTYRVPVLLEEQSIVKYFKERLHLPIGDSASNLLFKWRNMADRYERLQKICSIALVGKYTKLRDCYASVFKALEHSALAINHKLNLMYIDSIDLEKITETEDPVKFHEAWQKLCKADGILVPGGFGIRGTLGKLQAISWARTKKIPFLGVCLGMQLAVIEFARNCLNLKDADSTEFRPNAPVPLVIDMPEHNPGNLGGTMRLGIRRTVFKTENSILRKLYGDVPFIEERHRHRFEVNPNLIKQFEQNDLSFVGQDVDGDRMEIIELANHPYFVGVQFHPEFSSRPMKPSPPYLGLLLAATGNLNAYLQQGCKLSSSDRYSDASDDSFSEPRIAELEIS
Chain of UniProt O95838 (whole entry, looked up): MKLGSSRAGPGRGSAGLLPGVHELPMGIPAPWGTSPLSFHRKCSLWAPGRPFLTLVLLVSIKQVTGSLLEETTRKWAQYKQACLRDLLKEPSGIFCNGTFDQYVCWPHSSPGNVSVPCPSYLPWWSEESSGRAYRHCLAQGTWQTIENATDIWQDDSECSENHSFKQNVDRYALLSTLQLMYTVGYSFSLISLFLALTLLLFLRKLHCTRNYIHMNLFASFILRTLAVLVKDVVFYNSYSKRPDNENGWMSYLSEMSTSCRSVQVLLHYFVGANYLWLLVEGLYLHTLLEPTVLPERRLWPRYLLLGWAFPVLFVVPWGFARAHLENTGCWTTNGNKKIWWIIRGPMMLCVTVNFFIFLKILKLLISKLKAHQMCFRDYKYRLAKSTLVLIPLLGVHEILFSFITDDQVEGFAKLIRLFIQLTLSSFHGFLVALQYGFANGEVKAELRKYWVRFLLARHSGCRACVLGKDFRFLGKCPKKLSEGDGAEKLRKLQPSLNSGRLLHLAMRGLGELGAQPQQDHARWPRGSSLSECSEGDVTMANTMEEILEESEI

| SMILES | target | test | system | conditions | IC50 [nM] |
| --- | --- | --- | --- | --- | --- |
| C[C@H](OP(=O)(O)O)[C@H]1NC(=O)[C@H](CCCNC(=N)N)NC(=O)[C@@H](CCCNC(=N)N)NC(=O)[C@H](CCCNC(=N)N)NC(=O)[C@H](Cc2ccc3ccccc3c2)NC(=O)[C@H](Cc2ccc3ccccc3c2)NC(=O)[C@@H]2CCCCN2C1=O | PIN1 (Homo sapiens, UniProt Q13526) | fluorescence anisotropy competition |  | with: FITC-labelled probe | 2000 ± 590 |
| CN1CCC2(CC1)C/C(=N\NC(=O)Nc1ccccc1)c1ccccc1O2 | ERBB2 (Homo sapiens, UniProt P04626) | enzyme activity, inhibitor |  |  | 55 |
| CC[C@H](C)[C@H](NC(=O)[C@H](Cc1ccccc1)NC(=O)[C@H](CC(=O)O)NC(=O)[C@H](CCCNC(=N)N)NC(=O)[C@H](C)NC(=O)[C@H](C)NC(=O)[C@H](CC(C)C)NC(=O)[C@H](CC(N)=O)NC(=O)[C@H](CC(=O)O)NC(=O)[C@H](CC(C)C)NC(=O)[C@@H](NC(=O)[C@@H](NC(=O)[C@H](CC(N)=O)NC(=O)[C@H](CCSC)NC(=O)[C@H](CCC(=O)O)NC(=O)[C@H](CC(=O)O)NC(=O)[C@H](CO)NC(=O)[C@H](Cc1ccccc1)NC(=O)[C@H](CO)NC(=O)[C@@H]1CCC[C@H]1NC(=O)[C@H](CC(=O)O)NC(=O)[C@H](C)NC(=O)[C@@H](N)Cc1c[nH]cn1)[C@@H](C)O)[C@@H](C)CC)C(=O)N[C@@H](CC(N)=O)C(=O)N[C@@H](Cc1c[nH]c2ccccc12)C(=O)N[C@@H](CC(C)C)C(=O)N[C@H](C(=O)N[C@@H](CCC(N)=O)C(=O)N[C@H](C(=O)N[C@@H](CCCCN)C(=O)N[C@H](C(=O)N[C@H](C(=O)N[C@@H](CC(=O)O)C(N)=O)[C@@H](C)O)[C@@H](C)CC)[C@@H](C)O)[C@@H](C)CC | GLP2R (Homo sapiens, UniProt O95838) |  |  |  | 420 |
| CCN(CC)CCCNc1c2c(c(C#N)c3nc4ccccc4n13)CCC2 | ERO1-like protein alpha (Homo sapiens, UniProt Q96HE7) | enzyme activity, inhibitor, fluorescence |  |  | 23700 |
| CN(C)CC1C2CN(c3cc(-c4ccccc4F)nc4ccnn34)CC12 (centres unmarked) | Transcriptional enhancer factor TEF-3, YAP-binding domain (TEAD4, Homo sapiens, UniProt Q15561) |  |  |  | 336 |
| CN(CCOc1ccc(F)cc1)C(=O)c1cccc(S(=O)(=O)N2CCc3ccccc3C2)c1 | KCNA2/KCNA1 | potassium current, inhibitor, automated patch clamp | CHO-K1, concatemer expressing |  | 930 |
| Cc1cnc(Nc2ccc(C3CCN(C)CC3)c(F)c2)nc1Nc1ccc(Cl)c(NS(=O)(=O)C(C)(C)C)c1 | ULK3 (Homo sapiens, UniProt Q6PHR2) | enzyme activity, inhibitor |  |  | 227 |
| COCc1cc2c(cn1)CN(C(=O)Nc1nc(-c3ccc(F)cc3)ccc1N)C2 | HDAC11 | deacetylase activity, inhibitor, recombinant enzyme |  |  | 11800 |
| Nc1nc2ccc(Oc3ccc4nc(N)sc4c3)cc2s1 | Chemotaxis protein CheA (Escherichia coli, UniProt P07363) | kinase activity, ATP-competitive |  | with: CheW | > 100000 |
| N=C(N)NCCC[C@@H]1NC(=O)[C@H](Cc2c[nH]c3ccccc23)NC(=O)[C@H](CCCNC(=N)N)NC(=O)[C@H](Cc2c[nH]c3ccccc23)NC(=O)[C@H](CCCNC(=N)N)NC(=O)[C@H](Cc2c[nH]c3ccccc23)NC(=O)[C@H](CCCNC(=N)N)NC(=O)[C@H](Cc2c[nH]c3ccccc23)NC(=O)[C@H](CCCNC(=N)N)NC(=O)[C@H](Cc2c[nH]c3ccccc23)NC(=O)[C@H](CCCNC(=N)N)NC(=O)[C@H](Cc2c[nH]c3ccccc23)NC(=O)[C@H](CCCNC(=N)N)NC(=O)[C@H](Cc2c[nH]c3ccccc23)NC(=O)[C@H](CCCNC(=N)N)NC(=O)[C@H](Cc2c[nH]c3ccccc23)NC(=O)[C@H](CCCNC(=N)N)NC(=O)[C@H](Cc2c[nH]c3ccccc23)NC1=O | CSK | enzyme activity, inhibitor |  |  | 340 |
| CCOc1cncc(-c2ccc(NC(=O)C(CC)c3ccnc(NS(=O)(=O)C4CC4)n3)nc2)n1 (centres unmarked) | CTP synthase 2 (CTPS2, Homo sapiens, UniProt Q9NRF8) | enzyme activity, RapidFire mass spectrometry | human | geometric mean | 1870 |
| Cc1ccc(C(=O)Nc2ccc(CP(=O)(O)O)cc2CP(=O)(O)O)cc1NC(=O)c1cccc(NC(=O)Nc2cccc(C(=O)Nc3cc(C(=O)Nc4ccc(CP(=O)(O)O)cc4CP(=O)(O)O)ccc3C)c2)c1 | F11 (Homo sapiens, UniProt P03951) | enzyme activity, inhibitor, absorbance |  | pH 7.4 | ~7400 |
| O=C(O)c1ccc2nc(-c3ccc(OCCCCCCOc4ccc(-c5nc6ccc(C(=O)O)cc6[nH]5)cc4)cc3)[nH]c2c1 | Dihydrofolate reductase type 2 (Escherichia coli, UniProt P00383) | enzyme activity, inhibitor |  | pH 7 | 180000 ± 95000 |
| CN(c1ccccc1)S(=O)(=O)c1cccc(C(=O)N2CCN(C(=O)Cc3ccc(F)cc3)CC2)c1 | CACNA1C (Homo sapiens, UniProt Q13936) | calcium signal, fluorescence |  |  | 2520 |
| Cc1nc(Nc2ncc(C(=O)Nc3c(C)cccc3Cl)s2)cc(N2CCN(CCOC(=O)[C@@H](N)CCC(=O)O)CC2)n1 | CSK | enzyme activity, inhibitor |  |  | 20 |
| CC(C)C[C@@H](/C=C/S(C)(=O)=O)NC(=O)[C@H](CC(C)C)NC(=O)[C@@H](NC(=O)N[C@H](C(=O)OC(C)(C)C)C(C)C)C(C)C | rabbit 26S proteasome β1 | caspase-like activity, inhibitor, fluorogenic substrate | purified proteasome | 30 min, 37 °C, with: fluorogenic caspase-like substrate | > 30000 |
| Cn1cc(-c2cc(N3CCCS3(=O)=O)ccc2N[C@H]2CC[C@H](C)CC2)c2cc[nH]c2c1=O | Bromodomain-containing protein 4, BD1 (BRD4, Homo sapiens, UniProt O60885) | cell-free assay, TR-FRET |  |  | 0.52 |
| O=C(NCCCN1CCC(Cc2ccccc2)CC1)c1ccc(-c2ccccc2)cc1 | SLC6A3 (Homo sapiens, UniProt Q01959) | transporter uptake, inhibitor, radiometric |  |  | > 10000 |
| O=C[C@H](C[C@H]1CCNC1=O)NC(=O)[C@H](CC1CCCCC1)NC(=O)OCc1ccccc1 | Genome polyprotein, 3C protease (rhinovirus B14, UniProt P03303) | 3C protease activity, inhibitor, FRET |  |  | 73 ± 10 |
| Oc1cc(O)c2c(c1)OC(c1ccc(O)c(O)c1)C(OC1(c3ccc(O)c(O)c3)Oc3cc(O)cc(O)c3C(O)C1O)C2 (centres unmarked) | GPR35 (Homo sapiens, UniProt Q9HC97) | DMR desensitization | HT-29 | no detergent, with: zaprinast | 14100 |
| NC(=S)N/N=C/c1cc(Cl)ccc1O | SOD1 (Homo sapiens, UniProt P00441) | enzyme activity, inhibitor | HeLa | 24 h | 790 |

| SMILES | target | test | system | conditions | IC50 [nM] |
| --- | --- | --- | --- | --- | --- |
| CN(C(=O)c1ccn2ncc(-c3ccc(C(N)=O)cc3)c2c1)c1ccc(C#N)cn1 | rat benzodiazepine receptor | inhibitor, radioligand binding |  |  | > 30000 |
| Cc1cc(C)c(-c2[nH]nc(C)c2C)cc1C(=O)N1CC(c2ccc(C#N)cc2)C1 | Fatty acid synthase (Fasn, Mus musculus, UniProt P19096) | enzyme activity in cells, inhibitor |  |  | 857 |
| COC(=O)N1CCC(CN2CCC(CNC(=O)c3cccc4[nH]c(C(C)C)nc34)CC2)CC1 | SLC22A6 (Homo sapiens, UniProt Q4U2R8) | transporter uptake, inhibitor |  |  | > 10000 |
| C[C@@]12CC[C@@H]3c4cc(Br)c(O)c(Br)c4CC[C@H]3[C@@H]1CCC2=O | AKR1C1 (Homo sapiens, UniProt Q04828) | enzyme activity, inhibitor, absorbance |  | pH 9 | 5300 |
| CSCC[C@H](NC(=O)[C@H](CC(C)C)NC(=O)[C@H](CO)NC(=O)CNC(=O)[C@@H](NC(=O)[C@H](C)NC(=O)[C@H](Cc1c[nH]c2ccccc12)NC(=O)[C@H](CC(C)C)NC(=O)[C@@H]1CCC(=O)N1)C(C)C)C(N)=O | GRPR | ligand displacement in cells, radioligand |  |  | 524 |
| CCCC/N=C/C=C(C)/C=C/C=C(C)/C=C/C1=C(C)CCCC1(C)C | CNGA1 (Bos taurus, UniProt Q00194) | cGMP-activated current, inhibitor, inside-out patch clamp | Xenopus oocytes | 1 h steady state, +100 mV, with: 2 mM cGMP | ~80 |
| O=C(OC(C(F)(F)F)C(F)(F)F)N1CCC(CCn2ccc3cnccc32)CC1 | MGLL (Homo sapiens, UniProt Q99685) | enzyme activity, inhibitor |  |  | 1100 |
| Cc1ccc(CNC(=O)[C@H](CC(C)C)NC(=O)[C@H](CCc2ccccc2)NC(=O)c2cnc(C)cn2)cc1 | Proteasome component C5/PSMB5 (Homo sapiens, UniProt P20618+P28074) | β5 activity, inhibitor |  | with: Suc-LLVY-AMC, PA28α-activated | 6540 |
| COC(=O)c1ccc(Cn2sc3ccccc3c2=O)cc1 | HDAC11 | enzyme activity, inhibitor |  |  | > 10000 |
| CN(C)c1ccc2c(c1)C(=O)N(C(C(=O)O)C(C)(C)S)C2=O (centres unmarked) | VIM-2 (Escherichia coli, UniProt Q5U7L7) | enzyme activity, inhibitor |  | pH 7 | > 30000 |
| N#CN1CC[C@H](C(=O)Nc2nc3c(s2)CN(C(=O)CN=[N+]=[N-])CC3)C1 | UCHL1 (Homo sapiens, UniProt P09936) | enzyme activity, inhibitor, fluorescence |  | with preincubation | 320 |
| CNC(=O)C1CCN(c2ccccc2NC(=O)c2ccc(-c3cc(O)ccc3C)c(C)c2)CC1 | EPHA5 (Homo sapiens, UniProt P54756) | target engagement in cells, BRET |  |  | 10.8 |
| CCC1(CC)C[C@@H](NC(=O)Nc2cccc3c(C)nccc23)c2cc(F)ccc2O1 | TRPV1 | calcium signal, fluorescence |  | pH 5 | > 37500 |
| CC(C)C[C@@H](CN[C@H](Cc1ccccc1)C(N)=O)NC(=O)[C@H](Cc1c[nH]cn1)NC(=O)CNC(=O)[C@@H](NC(=O)[C@H](C)NC(=O)[C@H](Cc1c[nH]c2ccccc12)NC(=O)[C@H](CCC(N)=O)NC(=O)[C@H](N)Cc1ccccc1)C(C)C | GRPR | binding, radioligand binding | HuTu80 |  | 12.6 ± 0.5 |
| Cc1cc(C)nc(SC(C)C(=O)Nc2ncc(Cc3cccc4ccccc34)s2)n1 (centres unmarked) | SIRT1 (Homo sapiens, UniProt Q96EB6) | enzyme activity, inhibitor, fluorescence |  |  | > 100000 |
| O=C(CN1CCOc2ccccc2C1)c1ccc2[nH]c(=O)[nH]c2c1 | DNA dC->dU-editing enzyme APOBEC-3B (Homo sapiens, UniProt Q9UH17) | enzyme activity, inhibitor |  | pH 5.5 | 700000 |
| Cc1cc2c(NC(=O)N[C@@H]3CC(C)(C)Oc4c(OC(F)(F)F)cccc43)cccc2cn1 | TRPV1 | calcium signal, antagonist, fluorescence |  |  | 65.7 |
| COc1ccc([C@@H]2CC(=O)c3c(O)cc(O[C@@H]4O[C@H](CO[C@@H]5O[C@@H](C)[C@H](O)[C@@H](O)[C@H]5O)[C@@H](O)[C@H](O)[C@H]4O)cc3O2)cc1 | SLCO1B3 (Homo sapiens, UniProt Q9NPD5) | 8-FcA uptake, inhibitor, flow cytometry | HEK293 expressing SLCO1B3 | 10 min, with: 8-FcA 2.5 µM | > 100000 |
| O=C(OC(C(F)(F)F)C(F)(F)F)N1CCC(CCn2ncc3ccccc32)CC1 | Faah (Rattus norvegicus, UniProt P97612) | enzyme activity, inhibitor |  |  | 4100 |
| CC(=O)N(c1ccccc1)c1nc(COC(=O)[C@H]2CC(=O)N(c3cccc4ccccc34)C2)cs1 | KCNA2/KCNA1 | potassium current, inhibitor, automated patch clamp | CHO-K1, concatemer expressing |  | 790 |

A few entries again:
| SMILES | target | test | system | conditions | IC50 [nM] |
| --- | --- | --- | --- | --- | --- |
| O=C(OC(C(F)(F)F)C(F)(F)F)N1CCC(CCn2ccc3cnccc32)CC1 | MGLL (Homo sapiens, UniProt Q99685) | enzyme activity, inhibitor |  |  | 1100 |
| Cc1ccc(CNC(=O)[C@H](CC(C)C)NC(=O)[C@H](CCc2ccccc2)NC(=O)c2cnc(C)cn2)cc1 | Proteasome component C5/PSMB5 (Homo sapiens, UniProt P20618+P28074) | β5 activity, inhibitor |  | with: Suc-LLVY-AMC, PA28α-activated | 6540 |
| COC(=O)c1ccc(Cn2sc3ccccc3c2=O)cc1 | HDAC11 | enzyme activity, inhibitor |  |  | > 10000 |
| CN(C)c1ccc2c(c1)C(=O)N(C(C(=O)O)C(C)(C)S)C2=O (centres unmarked) | VIM-2 (Escherichia coli, UniProt Q5U7L7) | enzyme activity, inhibitor |  | pH 7 | > 30000 |
| N#CN1CC[C@H](C(=O)Nc2nc3c(s2)CN(C(=O)CN=[N+]=[N-])CC3)C1 | UCHL1 (Homo sapiens, UniProt P09936) | enzyme activity, inhibitor, fluorescence |  | with preincubation | 320 |
| CNC(=O)C1CCN(c2ccccc2NC(=O)c2ccc(-c3cc(O)ccc3C)c(C)c2)CC1 | EPHA5 (Homo sapiens, UniProt P54756) | target engagement in cells, BRET |  |  | 10.8 |
